Published values from different studies.
Parts stem from different laboratories: compare values within a part only. Positions count from the first letter of the parent shown.

Block 1
Target: CCNA2, cyclin fold, Cln2 fusion (human)
Method: yeast growth competition, sequencing
Sample: yeast
Setting: strong parent motif
Reference: not given
Reading: higher = stronger binding
Parent: WEE1 docking peptide (human); HKTFRKLRLFDTP
Variant	normalised enrichment score
K6L	1.35
F10Q	-0.192
F4S	1.35
H1L	0.151
T3D	-0.295
F10S	0.93
R5L	2.15
D11T	1.58
F4Y	0.569
F4L	1.68
T3I	1.64
K6W	2.5
R8E	2.44
F10I	1.69
L7A	0.625
T12C	1.21
T12F	2.49
F10A	1.28
H1W	2.2
K6H	1.06
R5C	1.02
T3Q	0.995
L9A	2.41
K6M	0.426
D11E	1.28

Block 2
Target: Interferon regulatory factor 7, full length, phosphomimetic (IRF7, Homo sapiens, UniProt Q92985, residues 1-503, S471D/S472D/S475D/S476D/S477D/S483D/S484D/S487D)
Method: protein-binding microarray
Form: double-stranded DNA, one strand shown
Sample: in vitro
Tested at: 2200 nM top
Setting: 60-bp whole probe
Added: salmon DNA 0.4 mg/ml
Reference: random background probes
Reading: higher = stronger binding
Shared flanks, not repeated: GCCTAGCAC … GTCTTGATTCGCTTGACGCTGCTG
Residues (chain): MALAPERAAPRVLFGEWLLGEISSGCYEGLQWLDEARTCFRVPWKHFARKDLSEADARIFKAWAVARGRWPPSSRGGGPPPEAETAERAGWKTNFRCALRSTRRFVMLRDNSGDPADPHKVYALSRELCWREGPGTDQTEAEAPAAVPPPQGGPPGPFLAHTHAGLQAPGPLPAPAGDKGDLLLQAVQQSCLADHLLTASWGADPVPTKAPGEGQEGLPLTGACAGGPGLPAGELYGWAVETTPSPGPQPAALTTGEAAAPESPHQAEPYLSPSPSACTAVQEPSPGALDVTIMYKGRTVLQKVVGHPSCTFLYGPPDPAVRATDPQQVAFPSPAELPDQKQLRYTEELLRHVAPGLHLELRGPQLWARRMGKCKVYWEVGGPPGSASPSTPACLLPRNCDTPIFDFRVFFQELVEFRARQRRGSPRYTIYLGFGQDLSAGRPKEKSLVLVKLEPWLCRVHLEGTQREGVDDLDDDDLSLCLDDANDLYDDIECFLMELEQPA
Oligonucleotide	fitted relative affinity
GACGGTATCCTTTTCCTGAGGTGCTAG	0.859 z-score
TTAGATATCACTTTCGATTAGTGCTAG	7.74 z-score
GACGGTATCGACCATCGGGACGTGCTA	-0.166 z-score
TTAGGTGTCGACTTTCGGTTAGTGCTA	5.57 z-score
GACGGACTGGGCTTCGGGACGTGCTAG	-1.12 z-score
TTAGGACTGGGTCACGGTTAGTGCTAG	-0.641 z-score
TCAACACTAGTTTTCATACTGTGCTAG	1.27 z-score
GACGGTAGCGACTTTCGGGACGTGCTA	2.48 z-score
TTAGGTATAGACACTGGGTTAGTGCTA	-0.388 z-score
TTAGGTATCGTCTTTCGGTTAGTGCTA	3.5 z-score
AGGCAGGCATAAAGGAAAAAGTGCTAG	-1.99 z-score
TTCGGACTGGGTTTCGGTTAGTGCTAG	3.9 z-score
TCTCGCTTCATCTCCCAGACTGTGCTA	3.39 z-score
TCAATTTTGAGACTCATACTGTGCTAG	0.248 z-score
TTGGGTTTCGGGTTTCGGTTAGTGCTA	9.34 z-score
TCGTTATCCTATATCTGAACGTGCTAG	3.11 z-score
TCAGCAAAAATGATTGGACTGTGCTAG	-0.729 z-score
GACGGGCTCGGTTTCGGGACGTGCTAG	2.54 z-score
TCACTTTTATGCTCTTTCACTGTGCTA	2.23 z-score
TAAGGTTTCCTACTGCTTTAGTGCTAG	0.902 z-score
GACGAACTGCGGTTTCGAGACGTGCTA	2.11 z-score
TTAGGTCTCGTTATCCTTTAGTGCTAG	1.17 z-score
GACCATTTCGGGTTTCGAGACGTGCTA	4.05 z-score
GACGGTCTCGGCCTCGGGACGTGCTAG	-0.592 z-score
GACGAACTCAGTCTCGAGACGTGCTAG	0.174 z-score

Block 3
Target: RING finger protein unkempt homolog, zinc fingers 1-6, GST-SBP tag (UNK, Homo sapiens, UniProt Q9C0B0, residues 30-357)
Method: RNA Bind-n-Seq
Form: RNA
Sample: in vitro
Tested at: not given
Setting: RNA with constant flanks, human and mouse sites, ends assumed
Reference: input RNA pool
Reading: higher = stronger binding
Shared flanks, not repeated: GGGAGUUCUACAGUCCGACGAUC … CAACAGAGGAUUGAGCAUCA
Target sequence (chain): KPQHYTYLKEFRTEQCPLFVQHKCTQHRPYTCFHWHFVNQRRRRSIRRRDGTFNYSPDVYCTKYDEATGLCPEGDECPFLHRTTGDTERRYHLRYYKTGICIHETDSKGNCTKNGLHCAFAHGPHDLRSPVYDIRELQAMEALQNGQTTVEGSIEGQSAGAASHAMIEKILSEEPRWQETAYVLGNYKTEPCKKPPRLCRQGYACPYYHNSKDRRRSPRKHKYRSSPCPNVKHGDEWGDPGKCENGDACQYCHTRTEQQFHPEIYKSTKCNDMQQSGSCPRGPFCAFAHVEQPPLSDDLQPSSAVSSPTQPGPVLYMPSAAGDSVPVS
Oligonucleotide	bound/input enrichment
GAGCGUCUCGCUCGAACCGGGAUCAUAGUGACCACGAGUGAGGCUGUUCUGCUUCAGCUGGUAGCUGAUAAGGACCAUCCAAAAUUCAAGGAAAUUCAGAAUCUAAUUAAGGCGAGUGCU	0.193 ratio
CCAGUGAGUCAUCCGUCCAGAAGGCGGGGAGAGCAGCAGCGGCCCAAGCAGGAGCUGCAGCGAGCCGGGUACCUGGACUCAGCGGUAGCAACCUCGCCCCUUGCAACAAAGGCAGACUGA	0.0972 ratio
CAUGUGACCAAAUCCAUUUCAUUAUUGAAUGGCUUGAUGGAUUUCCUUUACUCUGAUUCAUACCAAAGCUGUCCUUCUCAACCAAAGCAAGAAAGGAUCCUGCAUGAGUCAAUCCCAGAA	0.156 ratio
UGUAAGCUGCCAAGACUGUCUCUGAAUGGAGUCCGGUUUAAGCGGAUAUCAGGGACAUCCAUAGCUUUCAAAAAUAUUGCUUCCAAAAUUGCCAAUGAGCUAAAGCUGUAACCCAGUAAU	0.85 ratio
AGGAAGAGGAGGAGGAGGAGCAGUUGUUGUUUAGCCAUGAUUGUAAAAAUGUUAUUGUUUCAGGAAACAGCAAGACAUAGUAGAGCUGAAGGAGAGCCAGGAGCAUCACAUUCUGGAAGU	0.465 ratio
GAGACGGGAUAUGAGGAUCAAUGAUGCAGACUGCUGGGUUCGAUGAAGCUGGGCAUUUAUAACUAGAUUCAUUAAGGAAUACAAAGAAAAUAUUUAAAGGGAUCAAUAAUGGUGUCUUCU	0.692 ratio
GUAUUCUCCAAAGCAGUGUUCACACGGGAGCCAGCCUGUGGCCCCCAGCCUCCUGGAAAACAGGUUGGCGCUGGAGGAGCCGGGUCUUGGCAUCCUGGAGGUGGCCCCACUGGUCCUGGU	0.111 ratio
GACAUUGCAGAAAAUGCUUUGAAAAAUUCCUCAGAAACAGAAAUACCUACUGUCAGCGUUUUAGCUGAUGAAGAAUUCCUUCCCUUCAAAGAAAAUACAUUUGACCUGGUGGUUAGCAGU	0.336 ratio
CUGAAGAAGACGGCUAGCCUCGGGUUCUGCGCAGUUUCCCUCUACUUUGUCACGGCCUUCAUCAUCCCCGCCAUCUCCACCAAUAUCCAGUCCAUGCACAAAGGCACCGGCUCUCCAUGG	0.197 ratio
UAUCUUAUAUUGCAUCUCAUCUCUACAGUGUAUACAAGAAGAGAUGUACUUCCUCUAGGAAAAUUUACAGUUAACCUGAGUGGUUGCCCGCAGAACAGUACCUUCACGGAACACCUCUAC	0.925 ratio
UUUAAUUUAAUGCUGUAGAGGGUGACUUGCCAUCGUGAGAGAUUGGUACAUGAUGUGUAAAUUCAGUUCAGCAUAUGUUUCUUCAUUAUGAAACCACUAGCAAUCCCAGCUAACCAUGGA	0.36 ratio

Block 4
Target: RNA binding protein fox-1 homolog 2, RRM domain, GST-SBP tag (RBFOX2, Homo sapiens, UniProt O43251-10, residues 100-194)
Method: RNA Bind-n-Seq
Form: RNA
Sample: in vitro
Tested at: 365 nM
Setting: natural RNA segment, single round, ends assumed
Reference: no-protein control
Reading: higher = stronger binding
Shared flanks, not repeated: GGGAGUUCUACAGUCCGACGAUC … UGGAAUUCUCGGGUGCCAA
Oligonucleotide	RBNS enrichment (R)
UCCGUAGCAGAACACUGUAAAAGUGCCCGCGUCUUUGCAGUAGUUGCAGAUUUCAGUCGUCGUGUUACUUGUGCACAAACAGAAGCUGGGUCUUACCCGCAGCACGAGUG	0.523
ACUAAGUGUUUUCAAAUAAAUCUAAAUCUUCAGCAUGAUGUGUUGUGUAUAAUUGGAGUAGAUAUUAAUUAAGUCACCUGUAUAAUGUUUUGUAAUUUUGCAAAACAUAU	5.44
AAUGUAAAGGGGACAGCUCAGGGUUGUUUUGGAGCCUGUUUGACUUUGUAAUCUCUGCCUGUGAUUUUCUUUUCUAAAUGACGACUCCGUGUAACCACCUGGACUAAGUU	2.03
CUCUGGCACGCUUGAGAGGAGUCAUGCCACUUUGAUGCUCCUUGCAGAGGUGGGACACUGAGGUGCUUUGCUUAAAUUUCAAAGCUUGCAUAUAUUCAUGUAAAUAUAUG	3.06
GGAAAACCAAAAAGAAGAAAAGCAUUAAAAGGAUUUAGCACUGGAGACUGUACAGCCACCCUCAGCUGCCAUCUUUGUCUUCCUGCUGCCACCUCAGGCAGCUGUUACUC	0.818
UAAAUUAGCAGAACCACAUCCCCAUCUGUUAGGCCUUGGUGAGGAGGCCCUGGGCAAAGAAGGGUCUUUCGCAAAGCGAUGUCAGAGGGCGGUUUUGAGCUUUCUAUAAG	0.446
GCAGACGCGCAGGCCCCACCUGGCCUCCUGAAUCAAAAUGGUGUGCGGCAGGGUGCAGCGAGCUGUUUUCACGAGGCCUCCAGGUGACUGGAUGUAAGCUUGCUUGAGAA	0.516
CCUGGUAUUCUGUGAUCUGCCUCUUGCUGCCAUUCUUUCUCUCCUCUGCUUCUCUGUAUUUUUCUUCUGUUAUCCCUGGGGGUGCUCAGGUUCACUUGAUUGUCUGUAUU	1.51
CUCCUUUCAGAACAGGAAUGUGCCUCCUAAUGUUUACUGUUACCCUGCUGUCUCUGUAUGUCCAGUCGGUGGAACACUGUAAUGACUUGAGAAUAAACUGCCCAGAGUUC	0.528
ACAGAGGAAGCUCAGGCACAGAGGACGAGGAGCAAGCUGGCGCCGACAUGGCGAAGGCAAGGUCUUCCCCCAGAGGCACAUUCCUCUCCAUCUUUCCACCGCACACCUGG	0.382
UCAGAUCUCAGAAUACUUAACCAAGCCAUUACAUCUUAAAACAAAACAAGUAGCAUACAUUUUGUAAUUAACAUUGAUAAACACUGUGAUUUUUUUGGUUAAAACUUUUU	0.599
AUGGAUAAAUUUGAGUAUAAAGGUUUUGUUAUAAAACUGUUCUUUAGUGUAAGGCUGCAUUGUGGGUUUGGGGGAAAUGUAAAUAAUUUUCUGUGUAAAACAAAUUCAUA	0.573

For quick reference, copied from above (block 1):
Variant	normalised enrichment score
F4Y	0.569
F4L	1.68
T3I	1.64
K6W	2.5
R8E	2.44
F10I	1.69
L7A	0.625
T12C	1.21
T12F	2.49
F10A	1.28
H1W	2.2
K6H	1.06
